Experimental data collected from several papers.
Each numbered part is a random draw from the data of one study; scales do not carry over between parts.

Sample 1 — method: RNAcompete; molecule type: RNA; medium: in vitro; tested at: 20 nM; setting: 7-mer, probes averaged, single round; reference: mean of 7-mers; direction: higher = stronger binding; quantity: 7-mer Z-score
Target: PABPC1L2, full length, GST fusion (mouse, UniProt A0ABA7IW68)
Target sequence (chain): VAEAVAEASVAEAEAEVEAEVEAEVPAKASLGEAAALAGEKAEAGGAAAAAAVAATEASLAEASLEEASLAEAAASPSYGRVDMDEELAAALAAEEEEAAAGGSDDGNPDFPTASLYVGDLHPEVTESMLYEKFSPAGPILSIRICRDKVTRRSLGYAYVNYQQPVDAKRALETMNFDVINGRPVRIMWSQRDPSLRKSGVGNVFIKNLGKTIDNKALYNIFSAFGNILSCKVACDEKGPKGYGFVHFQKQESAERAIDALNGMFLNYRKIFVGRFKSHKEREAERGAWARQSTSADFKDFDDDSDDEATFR
Strand = GAUGCUA; result = -0.0826
Strand = GGUAAUG; result = 0.0352
Strand = UUUUGGA; result = 0.0551
Strand = AAAUAUG; result = 3.29

Sample 2 — method: competition protein-binding microarray; molecule type: double-stranded DNA, one strand shown; medium: in vitro; tested at: 2 µM; together with: Pho4 competitor, 0.05 µM; direction: higher = stronger binding; quantity: fluorescence intensity
Target: Centromere-binding protein 1, full length, His-tagged (CBF1, Saccharomyces cerevisiae, UniProt P17106, residues 1-351)
Chain of UniProt P17106 (whole entry, looked up): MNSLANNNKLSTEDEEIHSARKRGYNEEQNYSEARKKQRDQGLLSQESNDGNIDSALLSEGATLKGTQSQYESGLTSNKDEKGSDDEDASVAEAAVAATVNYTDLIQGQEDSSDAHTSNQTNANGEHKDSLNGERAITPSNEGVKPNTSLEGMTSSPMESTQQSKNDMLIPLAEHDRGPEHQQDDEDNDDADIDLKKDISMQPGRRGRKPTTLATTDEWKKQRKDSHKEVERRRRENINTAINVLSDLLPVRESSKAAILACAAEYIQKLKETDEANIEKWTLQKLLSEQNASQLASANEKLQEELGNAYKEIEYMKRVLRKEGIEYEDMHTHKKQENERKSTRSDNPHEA
Setting: whole 60-bp probe, lowest competitor level
Strand = CGTCCTAGTGATTGTCACGCAACTTCCATGAGGAAGGTCTTGATTCGCTTGACGCTGCTG; result = 152 a.u.
Strand = GAAAGAGCGAAAATACTCGTGATGGAAACTCTTTTAGTCTTGATTCGCTTGACGCTGCTG; result = 223 a.u.
Strand = ACAAAGAGAGATGAATCCGTGCGATCCATTGTAGAAGTCTTGATTCGCTTGACGCTGCTG; result = 52.3 a.u.
Strand = CTAACGAAGGTTTGTCACATGACTTACAAGCCAAGTGTCTTGATTCGCTTGACGCTGCTG; result = 2510 a.u.

Sample 3 — method: universal PBM; molecule type: double-stranded DNA, one strand shown; medium: in vitro; tested at: not given; direction: higher = stronger binding; quantity: E-score
Target: Sal-like protein 4, full length isoform B (SALL4, Homo sapiens, UniProt Q9UJQ4-2, residues 1-616)
Setting: 8-mer, flanks averaged, mean of replicates
Target sequence (chain): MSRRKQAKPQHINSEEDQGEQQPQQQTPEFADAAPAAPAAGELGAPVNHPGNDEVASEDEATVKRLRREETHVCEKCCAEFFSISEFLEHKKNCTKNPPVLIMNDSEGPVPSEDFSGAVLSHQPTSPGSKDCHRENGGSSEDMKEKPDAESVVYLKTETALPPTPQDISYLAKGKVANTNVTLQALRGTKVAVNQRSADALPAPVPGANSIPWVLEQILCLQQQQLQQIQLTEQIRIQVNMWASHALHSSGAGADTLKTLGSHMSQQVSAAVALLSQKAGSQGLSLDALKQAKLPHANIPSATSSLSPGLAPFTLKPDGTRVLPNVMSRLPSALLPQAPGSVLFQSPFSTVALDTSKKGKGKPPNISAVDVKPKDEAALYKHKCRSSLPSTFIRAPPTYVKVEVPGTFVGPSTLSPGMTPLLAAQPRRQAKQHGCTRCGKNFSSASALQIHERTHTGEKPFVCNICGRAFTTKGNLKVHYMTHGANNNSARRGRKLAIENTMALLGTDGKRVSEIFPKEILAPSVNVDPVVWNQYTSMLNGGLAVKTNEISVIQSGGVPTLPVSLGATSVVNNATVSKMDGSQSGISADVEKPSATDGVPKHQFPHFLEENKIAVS
Strand = ACCAGGTC; result = -0.221
Strand = CAGCATCC; result = -0.214
Strand = CGACAACA; result = -0.139
Strand = CGCCAGTC; result = -0.199

Mixed results
Substance = PhoQ, residues 284 288 289 292 302 303 SLANKL; target = PhoP, residues 12 14 15 18 19 LWHVM (Escherichia coli, UniProt P23836); test = Sort-seq, measured: YFP reporter; test system = E. coli; conditions = PhoQ-PhoP variant library, together with: 10 µM Mg2+; how to read = reference: high Mg2+ state, higher = stronger signaling; quantity = fold induction; result = 7.67

For quick reference, copied from above (sample 1):
Strand = GAUGCUA; result = -0.0826
Strand = GGUAAUG; result = 0.0352
